Published values gathered from unrelated publications.
Each numbered part is a random draw from the data of one study; scales do not carry over between parts.
UniProt Q9NY57, sequence (whole entry, looked up): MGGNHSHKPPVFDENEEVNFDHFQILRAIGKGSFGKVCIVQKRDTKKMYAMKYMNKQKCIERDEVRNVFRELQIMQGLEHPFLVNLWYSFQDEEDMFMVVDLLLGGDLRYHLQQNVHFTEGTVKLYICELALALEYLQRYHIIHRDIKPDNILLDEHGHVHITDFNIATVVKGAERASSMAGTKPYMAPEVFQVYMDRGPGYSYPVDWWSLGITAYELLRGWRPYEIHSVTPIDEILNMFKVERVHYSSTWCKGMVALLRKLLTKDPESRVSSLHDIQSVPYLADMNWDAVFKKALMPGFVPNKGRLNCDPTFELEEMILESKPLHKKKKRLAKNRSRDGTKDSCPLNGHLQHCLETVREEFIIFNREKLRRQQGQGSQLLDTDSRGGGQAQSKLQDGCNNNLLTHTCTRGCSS
UniProt Q9BUB5, sequence (whole entry, looked up): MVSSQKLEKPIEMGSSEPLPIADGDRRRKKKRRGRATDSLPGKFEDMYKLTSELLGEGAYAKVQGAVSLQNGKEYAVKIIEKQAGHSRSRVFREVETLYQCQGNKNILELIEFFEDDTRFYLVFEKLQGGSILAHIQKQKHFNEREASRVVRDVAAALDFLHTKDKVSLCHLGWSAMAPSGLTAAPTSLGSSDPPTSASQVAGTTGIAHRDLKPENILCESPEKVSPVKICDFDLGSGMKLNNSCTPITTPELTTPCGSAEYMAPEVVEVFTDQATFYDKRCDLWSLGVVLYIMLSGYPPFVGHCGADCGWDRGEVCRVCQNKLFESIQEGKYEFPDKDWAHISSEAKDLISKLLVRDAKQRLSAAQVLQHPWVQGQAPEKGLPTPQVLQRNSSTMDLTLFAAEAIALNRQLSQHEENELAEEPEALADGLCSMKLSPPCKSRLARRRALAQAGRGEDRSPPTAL
UniProt P42336, sequence (whole entry, unmodified, looked up): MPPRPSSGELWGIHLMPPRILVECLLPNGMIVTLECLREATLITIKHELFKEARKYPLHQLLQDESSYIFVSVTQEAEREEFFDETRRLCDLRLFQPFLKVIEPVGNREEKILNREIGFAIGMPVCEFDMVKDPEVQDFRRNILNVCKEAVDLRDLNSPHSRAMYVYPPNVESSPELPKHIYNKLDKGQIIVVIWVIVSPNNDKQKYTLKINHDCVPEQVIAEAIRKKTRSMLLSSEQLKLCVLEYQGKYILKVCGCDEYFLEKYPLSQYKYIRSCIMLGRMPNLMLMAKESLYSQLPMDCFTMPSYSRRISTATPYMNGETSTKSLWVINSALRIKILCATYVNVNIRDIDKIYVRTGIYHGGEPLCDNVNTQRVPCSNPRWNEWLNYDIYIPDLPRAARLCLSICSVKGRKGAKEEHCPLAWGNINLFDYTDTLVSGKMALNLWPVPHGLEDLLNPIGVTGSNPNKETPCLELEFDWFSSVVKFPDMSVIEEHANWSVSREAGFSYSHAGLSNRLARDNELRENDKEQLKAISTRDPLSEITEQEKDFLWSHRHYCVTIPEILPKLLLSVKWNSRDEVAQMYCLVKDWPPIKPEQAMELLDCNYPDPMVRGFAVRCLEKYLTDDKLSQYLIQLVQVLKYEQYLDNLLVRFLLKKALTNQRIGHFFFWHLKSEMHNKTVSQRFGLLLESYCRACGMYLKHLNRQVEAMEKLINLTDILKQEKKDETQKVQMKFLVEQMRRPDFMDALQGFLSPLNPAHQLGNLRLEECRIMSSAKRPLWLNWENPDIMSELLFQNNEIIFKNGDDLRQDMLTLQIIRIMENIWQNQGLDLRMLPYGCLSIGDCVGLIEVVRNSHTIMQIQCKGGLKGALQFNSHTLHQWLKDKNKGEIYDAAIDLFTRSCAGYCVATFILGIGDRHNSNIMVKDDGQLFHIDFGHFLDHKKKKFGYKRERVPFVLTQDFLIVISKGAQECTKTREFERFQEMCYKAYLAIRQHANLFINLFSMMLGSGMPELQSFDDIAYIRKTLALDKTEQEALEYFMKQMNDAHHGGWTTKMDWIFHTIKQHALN
UniProt Q9BYT3, sequence (whole entry, looked up): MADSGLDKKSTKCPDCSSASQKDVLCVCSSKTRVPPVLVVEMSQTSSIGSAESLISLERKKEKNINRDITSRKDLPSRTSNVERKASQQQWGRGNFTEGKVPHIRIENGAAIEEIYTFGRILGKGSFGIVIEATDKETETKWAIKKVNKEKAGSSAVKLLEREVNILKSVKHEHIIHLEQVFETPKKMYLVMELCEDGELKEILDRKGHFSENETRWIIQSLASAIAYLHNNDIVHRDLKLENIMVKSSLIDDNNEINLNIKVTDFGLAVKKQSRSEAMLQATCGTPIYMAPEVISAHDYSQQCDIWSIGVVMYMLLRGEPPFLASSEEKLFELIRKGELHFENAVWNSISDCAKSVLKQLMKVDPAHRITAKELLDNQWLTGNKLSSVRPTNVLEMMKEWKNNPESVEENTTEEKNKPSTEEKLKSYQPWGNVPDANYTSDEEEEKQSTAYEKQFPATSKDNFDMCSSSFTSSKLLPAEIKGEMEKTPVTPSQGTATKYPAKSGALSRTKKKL
UniProt Q9Y6M4, sequence (whole entry, looked up): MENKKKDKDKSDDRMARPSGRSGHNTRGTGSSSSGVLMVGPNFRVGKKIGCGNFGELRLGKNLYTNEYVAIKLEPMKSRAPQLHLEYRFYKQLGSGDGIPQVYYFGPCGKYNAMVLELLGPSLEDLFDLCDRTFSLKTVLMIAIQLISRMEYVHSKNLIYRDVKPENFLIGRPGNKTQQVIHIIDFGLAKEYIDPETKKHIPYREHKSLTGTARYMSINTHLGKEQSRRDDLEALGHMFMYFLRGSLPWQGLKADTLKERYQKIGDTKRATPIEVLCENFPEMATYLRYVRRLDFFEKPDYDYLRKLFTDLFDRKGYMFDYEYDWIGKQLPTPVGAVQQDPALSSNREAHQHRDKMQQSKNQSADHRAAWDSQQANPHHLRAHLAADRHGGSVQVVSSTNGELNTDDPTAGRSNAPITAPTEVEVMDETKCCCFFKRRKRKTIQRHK
UniProt Q9NRM7, sequence (whole entry, looked up): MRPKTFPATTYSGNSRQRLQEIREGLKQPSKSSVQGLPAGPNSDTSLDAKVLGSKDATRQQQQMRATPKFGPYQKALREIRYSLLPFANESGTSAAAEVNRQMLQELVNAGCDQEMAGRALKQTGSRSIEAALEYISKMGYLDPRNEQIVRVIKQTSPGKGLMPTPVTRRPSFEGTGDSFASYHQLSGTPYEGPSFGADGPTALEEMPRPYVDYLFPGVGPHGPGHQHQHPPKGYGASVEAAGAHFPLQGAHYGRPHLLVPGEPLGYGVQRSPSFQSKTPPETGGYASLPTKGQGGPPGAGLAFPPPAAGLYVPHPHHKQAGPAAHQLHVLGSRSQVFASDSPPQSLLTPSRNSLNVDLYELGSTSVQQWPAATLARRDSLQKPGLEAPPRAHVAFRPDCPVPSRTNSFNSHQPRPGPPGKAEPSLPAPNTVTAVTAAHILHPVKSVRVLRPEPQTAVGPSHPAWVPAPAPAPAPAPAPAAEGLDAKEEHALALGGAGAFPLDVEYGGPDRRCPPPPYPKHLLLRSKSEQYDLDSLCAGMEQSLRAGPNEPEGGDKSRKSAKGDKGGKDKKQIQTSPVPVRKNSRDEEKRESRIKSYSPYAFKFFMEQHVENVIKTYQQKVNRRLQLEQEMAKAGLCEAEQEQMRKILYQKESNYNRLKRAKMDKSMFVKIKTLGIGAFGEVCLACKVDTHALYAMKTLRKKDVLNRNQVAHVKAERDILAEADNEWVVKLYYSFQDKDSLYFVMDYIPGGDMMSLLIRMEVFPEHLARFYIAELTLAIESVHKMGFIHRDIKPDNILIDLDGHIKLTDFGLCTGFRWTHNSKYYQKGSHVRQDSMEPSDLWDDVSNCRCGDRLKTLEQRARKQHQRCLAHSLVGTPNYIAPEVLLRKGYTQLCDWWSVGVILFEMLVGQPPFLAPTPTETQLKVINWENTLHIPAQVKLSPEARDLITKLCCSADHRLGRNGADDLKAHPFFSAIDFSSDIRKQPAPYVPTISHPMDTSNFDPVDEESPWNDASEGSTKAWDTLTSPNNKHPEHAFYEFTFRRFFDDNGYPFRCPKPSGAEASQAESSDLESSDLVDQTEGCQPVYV
UniProt Q96Q40, sequence (whole entry, looked up): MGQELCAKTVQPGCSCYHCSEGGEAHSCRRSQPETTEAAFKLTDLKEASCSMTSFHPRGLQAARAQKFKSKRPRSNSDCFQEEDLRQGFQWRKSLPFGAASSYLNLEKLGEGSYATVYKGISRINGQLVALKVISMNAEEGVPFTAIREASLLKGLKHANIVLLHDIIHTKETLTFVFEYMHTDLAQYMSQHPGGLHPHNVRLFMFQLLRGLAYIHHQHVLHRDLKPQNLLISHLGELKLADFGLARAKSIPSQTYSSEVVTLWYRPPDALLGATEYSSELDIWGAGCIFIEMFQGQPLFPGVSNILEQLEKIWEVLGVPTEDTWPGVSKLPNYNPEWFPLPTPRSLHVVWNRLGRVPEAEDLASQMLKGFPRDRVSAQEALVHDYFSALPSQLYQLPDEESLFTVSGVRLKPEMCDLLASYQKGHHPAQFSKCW

Series 1 — cell line: A-375; tested at: 100 µM; time: 36 h
`CC(C)(C)NCC(O)c1cc(O)cc(O)c1` (stereo not shown) gave a viability of 113%.
`Cc1ccc(S(=O)(=O)NC(=O)NN2CCCCCC2)cc1` has a viability of 48.4%.
The viability of `C[C@@H](NCCCc1cccc(C(F)(F)F)c1)c1cccc2ccccc12` is reported as -0.258%.
For `C/C(=C\C(=O)OCCCCCCCCC(=O)O)C[C@@H]1OC[C@H](C[C@@H]2O[C@H]2[C@@H](C)[C@H](C)O)[C@@H](O)[C@H]1O`, the viability was 96.8%.
For `Nc1ccccc1S(N)(=O)=O`, the viability was 111%.
For `C[N+](C)(C)CCO`, the viability was 102%.

Series 2 — species: mouse; sample: microsomes or S9; tested at: 2 µM; time: 0.5 h
The remaining compound of `Cc1n[nH]c(CC(=O)N2C[C@@H](C)[C@](O)(C(C)C)C2)n1` is reported as 88.2%.
The remaining compound of `COc1cc(NC(=O)c2cnn(-c3ccc(C)cc3C)c2C2CCNCC2)cc(OC)c1OC` is reported as greater than 100%.
`Cc1ccc(C(=O)N2CCN(C(=O)c3ccc(C)cc3)C2)cc1` gave a remaining compound of 30.7%.
With `COC(=O)c1c(NC(=O)N2CCN(C(=O)C(C)C)CC2)sc2c1CC(C)(C)OC2` the remaining compound was 60.4%.
`Cc1nc2ccccc2n1Cc1cc(NCc2ccccc2OC(C)C)nc(N)n1` has a remaining compound of 1.85%.
With `COC(=O)c1cc(Br)c(=O)n(-c2nccs2)c1` the remaining compound was 0.451%.

Series 3 — effect on: cell-free assay; technique: competition with immobilised ligand; tested at: 0.1 µM
Structure (SMILES): Cc1c[nH]c2nccc(Oc3c(F)cc(Nc4cc(Cl)nc(N)n4)cc3F)c12
The remaining binding was 100% (MAP kinase-interacting serine/threonine-protein kinase 1 (MKNK1, Homo sapiens, UniProt Q9BUB5)).
The remaining binding was 28% (cAMP-dependent protein kinase catalytic subunit alpha (PRKACA, Homo sapiens, UniProt P17612)).
The remaining binding was 69% (Serine/threonine-protein kinase 3 (STK3, Homo sapiens, UniProt Q13188)).
It gave 83% for remaining binding (Tyrosine-protein kinase ABL1, phosphorylated (ABL1, Homo sapiens, UniProt P00519, M351T)).
It gave 71% for remaining binding (Serine/threonine-protein kinase 32B (STK32B, Homo sapiens, UniProt Q9NY57)).
The remaining binding was 0.7% (Serine/threonine-protein kinase LATS2 (LATS2, Homo sapiens, UniProt Q9NRM7)).
The remaining binding was 100% (Interferon-induced, double-stranded RNA-activated protein kinase (EIF2AK2, Homo sapiens, UniProt P19525)).
Serine/threonine-protein kinase Chk1 (CHEK1, Homo sapiens, UniProt O14757) — remaining binding: 100%.
Phosphatidylinositol 4,5-bisphosphate 3-kinase catalytic subunit alpha isoform (PIK3CA, Homo sapiens, UniProt P42336, Q546K) — remaining binding: 76%.
The remaining binding was 100% (Ephrin type-A receptor 4 (EPHA4, Homo sapiens, UniProt P54764)).
For Casein kinase I isoform gamma-3 (CSNK1G3, Homo sapiens, UniProt Q9Y6M4): remaining binding read 100%.
Receptor-interacting serine/threonine-protein kinase 4 (RIPK4, Homo sapiens, UniProt P57078) — remaining binding: 84%.
Serine/threonine-protein kinase LATS1 (LATS1, Homo sapiens, UniProt O95835) — remaining binding: 42%.
For Serine/threonine-protein kinase D1 (PRKD1, Homo sapiens, UniProt Q15139): remaining binding read 55%.
Tyrosine-protein kinase SYK (SYK, Homo sapiens, UniProt P43405) — remaining binding: 100%.
For Serine/threonine-protein kinase 33 (STK33, Homo sapiens, UniProt Q9BYT3): remaining binding read 85%.
Macrophage colony-stimulating factor 1 receptor (CSF1R, Homo sapiens, UniProt P07333) — remaining binding: 100%.
For Serine/threonine-protein kinase PLK1 (PLK1, Homo sapiens, UniProt P53350): remaining binding read 75%.
For Tyrosine-protein kinase Lck (LCK, Homo sapiens, UniProt P06239): remaining binding read 100%.
The remaining binding was 76% (Cyclin-dependent kinase 15 (CDK15, Homo sapiens, UniProt Q96Q40)).
For Tyrosine-protein kinase HCK (HCK, Homo sapiens, UniProt P08631): remaining binding read 100%.
It gave 81% for remaining binding (Tyrosine-protein kinase Lyn (LYN, Homo sapiens, UniProt P07948)).
For Serine/threonine-protein kinase MARK2 (MARK2, Homo sapiens, UniProt Q7KZI7): remaining binding read 100%.
Interleukin-1 receptor-associated kinase 4 (IRAK4, Homo sapiens, UniProt Q9NWZ3) — remaining binding: 85%.
Serine/threonine-protein kinase RIO3 (RIOK3, Homo sapiens, UniProt O14730) — remaining binding: 93%.

Series 4 — effect on: enzyme activity; mode: inhibitor; tested at: 10 µM
Target: Calcium/calmodulin-dependent protein kinase type II subunit alpha (CAMK2A, Homo sapiens, UniProt Q9UQM7)
UniProt Q9UQM7, sequence (whole entry, looked up): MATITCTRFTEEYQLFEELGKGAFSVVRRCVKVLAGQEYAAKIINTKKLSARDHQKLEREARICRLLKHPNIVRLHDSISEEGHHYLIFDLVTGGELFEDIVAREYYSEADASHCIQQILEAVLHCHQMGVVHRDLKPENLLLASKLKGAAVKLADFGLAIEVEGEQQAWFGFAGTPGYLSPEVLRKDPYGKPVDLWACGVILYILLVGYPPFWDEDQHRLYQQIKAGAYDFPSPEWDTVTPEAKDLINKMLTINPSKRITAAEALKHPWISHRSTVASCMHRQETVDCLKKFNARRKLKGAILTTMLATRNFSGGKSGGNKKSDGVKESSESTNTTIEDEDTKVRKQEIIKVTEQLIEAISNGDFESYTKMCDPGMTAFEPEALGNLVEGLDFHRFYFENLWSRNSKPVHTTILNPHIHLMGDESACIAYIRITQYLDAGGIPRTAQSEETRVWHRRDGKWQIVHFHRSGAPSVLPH
With `Cn1c(=O)c2[nH]c(=O)[nH]c2n(C)c1=O` the inhibition was -25%.
`COc1ccc(-c2oc3c(CC=C(C)C)c(O[C@@H]4O[C@H](CO)[C@@H](O)[C@H](O)[C@H]4O)cc(O)c3c(=O)c2O)cc1` has an inhibition of 24%.
`CC(O)[C@H](C)[C@H](N)C(=O)O` (stereo partly shown) has an inhibition of 2%.
`N[C@H](CCSSCC[C@@H](N)C(=O)O)C(=O)O` (racemic) gave an inhibition of 20%.
The inhibition of `CC1COc2c(N3CCN(C)CC3)c(F)cc3c(=O)c(C(=O)O)cn1c23` (stereo not shown) is reported as -14%.

Series 5 — effect on: enzyme activity; mode: inhibitor; tested at: 0.5 µM; reference: control
Target: Ephrin type-B receptor 3 (EPHB3, Homo sapiens, UniProt P54753)
Residues (P54753 1-998): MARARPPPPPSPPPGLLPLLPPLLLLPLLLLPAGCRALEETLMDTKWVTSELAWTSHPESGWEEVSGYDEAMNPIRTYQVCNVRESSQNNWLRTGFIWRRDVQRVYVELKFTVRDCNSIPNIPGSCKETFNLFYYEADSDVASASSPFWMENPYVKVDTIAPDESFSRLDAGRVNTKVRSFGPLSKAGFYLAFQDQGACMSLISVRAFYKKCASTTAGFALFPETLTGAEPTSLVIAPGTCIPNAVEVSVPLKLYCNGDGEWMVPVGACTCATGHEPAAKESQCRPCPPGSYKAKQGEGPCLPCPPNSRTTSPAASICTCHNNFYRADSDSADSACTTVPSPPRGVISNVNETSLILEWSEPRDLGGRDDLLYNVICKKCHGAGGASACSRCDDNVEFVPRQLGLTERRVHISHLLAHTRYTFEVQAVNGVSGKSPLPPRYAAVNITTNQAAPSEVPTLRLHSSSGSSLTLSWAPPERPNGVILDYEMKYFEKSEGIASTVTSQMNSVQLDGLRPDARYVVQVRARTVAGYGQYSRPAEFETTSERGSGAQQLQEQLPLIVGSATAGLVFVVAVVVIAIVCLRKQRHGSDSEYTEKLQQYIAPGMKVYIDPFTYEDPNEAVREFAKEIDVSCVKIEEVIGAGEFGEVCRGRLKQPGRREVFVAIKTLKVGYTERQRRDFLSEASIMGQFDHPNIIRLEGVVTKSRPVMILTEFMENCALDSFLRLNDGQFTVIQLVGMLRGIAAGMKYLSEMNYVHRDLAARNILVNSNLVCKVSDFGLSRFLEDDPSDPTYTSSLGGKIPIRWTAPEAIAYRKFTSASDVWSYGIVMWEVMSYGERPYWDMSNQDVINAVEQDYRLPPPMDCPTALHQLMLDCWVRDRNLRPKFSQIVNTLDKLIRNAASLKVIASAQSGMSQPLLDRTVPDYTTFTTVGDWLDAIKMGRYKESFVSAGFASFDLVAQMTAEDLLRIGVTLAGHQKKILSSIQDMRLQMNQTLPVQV
For `O=S(=O)(NCCNC/C=C/c1ccc(Br)cc1)c1cccc2cnccc12`, the remaining activity was 92.5%.
`Cc1ccc(NC2=CC(=O)c3sc(C)nc3C2=O)cc1` has a remaining activity of 89.2%.
`Nc1nccc(-c2c(-c3ccc(F)cc3)ncn2C2CCNCC2)n1` gave a remaining activity of 101%.
`Cc1cc(Nc2nc(-c3ccccc3)nc3ccccc23)n[nH]1` gave a remaining activity of 86.5%.
`Oc1ccc(Nc2nc(-c3ccc(Cl)cc3)cs2)cc1` gave a remaining activity of 103%.

Series 6 — organism: Sarcocystis neurona; effect on: parasite growth; tested at: 10 µM; setting: secondary screen
For `CCCCc1oc2ccccc2c1C(=O)c1cc(I)c(OCCN(CC)CC)c(I)c1`, the inhibition was -9%.
The inhibition of `Cc1c(OCC(F)(F)F)ccnc1C[S+]([O-])c1nc2ccccc2[nH]1` (stereo not shown) is reported as -193%.
With `CN1CCCC(n2nc(Cc3ccc(Cl)cc3)c3ccccc3c2=O)CC1` (stereo not shown) the inhibition was 84.2%.
The inhibition of `CC(C)NCC(O)COc1cccc2[nH]ccc12` (stereo not shown) is reported as -32.1%.

Mixed results
`C[C@@H]1CN(c2ccc(-c3cc(C(=O)NCCOCCOCCOCCOCCNC(=O)Cn4cc(-c5[nH]cc(C(=O)N[C@@H](CC(N)=O)c6ccc(F)c(Cl)c6)c5-c5ccc(Cl)cc5F)cn4)ccc3F)cc2NC(=O)c2c[nH]c(=O)cc2C(F)(F)F)C[C@H](C)N1C`: “association rate constant” 43400 M⁻¹ s⁻¹ (WD repeat-containing protein 5 (WDR5, Homo sapiens, UniProt P61964); SPR).

A few entries again (series 4):
With `Cn1c(=O)c2[nH]c(=O)[nH]c2n(C)c1=O` the inhibition was -25%.
`CC(O)[C@H](C)[C@H](N)C(=O)O` (stereo partly shown) has an inhibition of 2%.
`N[C@H](CCSSCC[C@@H](N)C(=O)O)C(=O)O` (racemic) gave an inhibition of 20%.
The inhibition of `CC1COc2c(N3CCN(C)CC3)c(F)cc3c(=O)c(C(=O)O)cn1c23` (stereo not shown) is reported as -14%.
